Assay results of several laboratories.
Numbers after ± are the reported error.
B1: UGT1A9 (Homo sapiens, UniProt O60656); chain GKLLVVPMDGSHWFTMRSVVEKLILRGHEVVVVMPEVSWQLGRSLNCTVKTYSTSYTLEDLDREFKAFAHAQWKAQVRSIYSLLMGSYNDIFDLFFSNCRSLFKDKKLVEYLKESSFDAVFLDPFDNCGLIVAKYFSLPSVVFARGILCHYLEEGAQCPAPLSYVPRILLGFSDAMTFKERVRNHIMHLEEHLLCHRFFKNALEIASEILQTPVTEYDLYSHTSIWLLRTDFVLDYPKPVMPNMIFIGGINCHQGKPLPMEFEAYINASGEHGIVVFSLGSMVSEIPEKKAMAIADALGKIPQTVLWRYTGTRPSNLANNTILVKWLPQNDLLGHPMTRAFITHAGSHGVYESICNGVPMVMMPLFGDQMDNAKRMETKGAGVTLNVLEMTSEDLENALKAVINDKSYKENIMRLSSLHKDRPVEPLDLAVFWVEFVMRHKGAPHLRPAAHDLTWYQYHSLDVIGFLLAVVLTVAFITFKCCAYGYRKCLGKKGRVKKAHKSKTH

With `LRRFSTMPFMFSNINNVSNF` the inhibition was 98 ± 1.27% (HUVEC; cell adhesion, real-time cell analysis; peptide; 100 µM, 3 h; relative to: vehicle).
Cc1cc(N=Nc2cc(S(=O)(=O)O)c(C)cc2C)c(N)cc1O gave an inhibition of roughly 100% (U2OS; p53 reporter gene, p21 luciferase; 50 µM, added: doxorubicin).
The inhibition of C/C(=N\N=C1/NC(=O)/C(=C\c2ccc(F)cc2)S1)c1ccccn1 is reported as 57.6% (Vero; cell growth or viability, SRB; 100 µg/mL, 48 h).
With CN(C)c1ccc(-c2cc3ccccc3[nH]2)cc1 the inhibition was 95.9 ± 0.2% (HEK293 NF-κB luciferase reporter; reporter gene, measured: NF-κB; 50 µM, 6 h, added: TNFα).
`LRRFSTMPFMFVNINNVVNF` gave an inhibition of 95.12 ± 0.62% (HUVEC; cell adhesion, real-time cell analysis; peptide; 100 µM, 3 h; relative to: vehicle).
CCn1c(-c2ccccc2)cs/c1=N/N=C(\C)c1ccccn1 has an inhibition of 53.9% (Vero; cell growth or viability, SRB; 100 µg/mL, 48 h).
`LRRFSTMPFMFTNINNVTNF` has an inhibition of 59.1 ± 0.85% (HUVEC; cell proliferation, WST-1; peptide; 100 µM, 72 h; relative to: vehicle).
COc1cc(OC)cc(-c2cc3ccccc3[nH]2)c1 has an inhibition of 56.4 ± 2.3% (HEK293 NF-κB luciferase reporter; reporter gene, measured: NF-κB; 50 µM, 6 h, added: TNFα).
With C/C(=N\N=c1/[nH]c(C)c(/N=N/c2ccc(C)cc2)s1)c1ccccn1 the inhibition was less than 45% (Vero; cell proliferation, SRB; 100 µg/mL, 48 h).
`LRRFSTMPFAFININNVINF` gave an inhibition of 94.8 ± 0.93% (HUVEC; cell adhesion, real-time cell analysis; peptide; 100 µM, 3 h; relative to: vehicle).
The inhibition of O=[N+]([O-])c1ccc2[nH]c(-c3ccccc3)cc2c1 is reported as 92.8 ± 4% (HEK293 NF-κB luciferase reporter; reporter gene, measured: NF-κB; 50 µM, 6 h, added: TNFα).
`B1 (UGT1A9)` gave a Vmax/Km of 849 µL/min/mg (COc1cc(-c2cc(=O)c3c(O)cc(O)cc3o2)cc(OC)c1OC; steady-state kinetics; pH 7.4, 37 °C).
With CCn1c(-c2ccc(Br)cc2)cs/c1=N/N=C(\C)c1ccccn1 the inhibition was 56.4% (Vero; cell growth or viability, SRB; 100 µg/mL, 48 h).
For `LRRFSTMPFMFANINNVANF`, the inhibition was 98.19 ± 0.03% (HUVEC; cell adhesion, real-time cell analysis; peptide; 100 µM, 3 h; relative to: vehicle).
Nc1n[n+]([O-])c2ccccc2[n+]1[O-] gave an inhibition of 50% (HUVEC and fibroblast co-culture; tube formation; 20 µM, 11 d).
For CC(C)(C)OC(=O)n1c(-c2ccccc2)cc2ccccc21, the inhibition was 0% (HEK293 NF-κB luciferase reporter; reporter gene, measured: NF-κB; 50 µM, 6 h, added: TNFα).
`TAGSCLRKFSTM` gave an inhibition of roughly 25% (bovine aortic endothelial cells; cell adhesion; peptide, type IV collagen-coated plate; 4 µg/mL, 15 min then 60 min, room temperature then 37 °C).
The inhibition of Nc1cccc(-c2cc3ccccc3[nH]2)c1 is reported as 72 ± 1.9% (HEK293 NF-κB luciferase reporter; reporter gene, measured: NF-κB; 50 µM, 6 h, added: TNFα).
CCN1C(=O)C(C)S/C1=N/N=C(\C)c1ccccn1 (stereo not drawn) gave an inhibition of 60.6% (Vero; cell growth or viability, SRB; 100 µg/mL, 48 h).
With O=Cc1c(-c2ccccc2)[nH]c2ccccc12 the inhibition was 36.2 ± 11.4% (HEK293 NF-κB luciferase reporter; reporter gene, measured: NF-κB; 50 µM, 6 h, added: TNFα).
CCn1c(C)c(C(C)=O)s/c1=N/N=C(\C)c1ccccn1 gave an inhibition of 55.8% (Vero; cell growth or viability, SRB; 100 µg/mL, 48 h).
With `LRRFSTMPFMFCNINNVCNF` the inhibition was 91.02 ± 0.63% (HUVEC; cell migration, real-time cell analysis; peptide; 50 µM, added: full medium chemoattractant; relative to: vehicle).
For C/C(=N\N=C1/NC(=O)/C(=C\c2ccc(Cl)cc2)S1)c1ccccn1, the inhibition was 55.8% (Vero; cell growth or viability, SRB; 100 µg/mL, 48 h).
Brc1ccc(-c2cc3ccccc3[nH]2)cc1 gave an inhibition of 82.3 ± 0.8% (HEK293 NF-κB luciferase reporter; reporter gene, measured: NF-κB; 50 µM, 6 h, added: TNFα).
For `LRRFSTMPFMFININNVINF`, the inhibition was 73.2 ± 0.78% (HUVEC; cell proliferation, WST-1; peptide; 100 µM, 72 h; relative to: vehicle).
c1ccc(Cc2c(-c3ccccc3)n(Cc3ccccc3)c3ccccc23)cc1 gave an inhibition of 0% (HEK293 NF-κB luciferase reporter; reporter gene, measured: NF-κB; 50 µM, 6 h, added: TNFα).
[O-][n+]1nc(NCCNc2n[n+]([O-])c3ccccc3[n+]2[O-])nc2ccccc21 has an inhibition of 80 to 90% (HUVEC and fibroblast co-culture; tube formation; 20 µM, 11 d).
